Earlier results that unrelated publications cite.
Lines come from different studies, so protocols differ. ± gives the spread as reported.
UniProt P28074, sequence (whole entry, looked up): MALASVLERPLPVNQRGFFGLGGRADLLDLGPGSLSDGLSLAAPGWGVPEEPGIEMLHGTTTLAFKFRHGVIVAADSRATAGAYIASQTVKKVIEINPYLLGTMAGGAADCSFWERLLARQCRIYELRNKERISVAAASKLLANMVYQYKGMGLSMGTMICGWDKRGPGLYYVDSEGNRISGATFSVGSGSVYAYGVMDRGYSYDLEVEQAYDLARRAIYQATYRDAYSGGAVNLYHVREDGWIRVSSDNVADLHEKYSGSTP
UniProt P49720, sequence (whole entry, looked up): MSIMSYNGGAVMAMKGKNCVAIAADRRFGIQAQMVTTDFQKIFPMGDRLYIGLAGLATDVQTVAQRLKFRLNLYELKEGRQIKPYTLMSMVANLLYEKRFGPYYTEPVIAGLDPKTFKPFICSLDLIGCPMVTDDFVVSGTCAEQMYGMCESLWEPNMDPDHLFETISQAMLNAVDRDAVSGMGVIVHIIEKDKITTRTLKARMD
UniProt P20618, sequence (whole entry, looked up): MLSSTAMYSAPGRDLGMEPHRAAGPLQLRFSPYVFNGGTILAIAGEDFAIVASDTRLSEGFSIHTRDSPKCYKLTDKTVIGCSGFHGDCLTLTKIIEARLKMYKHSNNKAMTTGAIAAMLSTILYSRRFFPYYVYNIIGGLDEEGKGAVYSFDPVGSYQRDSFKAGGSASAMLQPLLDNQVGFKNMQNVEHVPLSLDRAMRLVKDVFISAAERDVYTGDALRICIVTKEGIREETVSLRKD
UniProt Q99523, sequence (whole entry, looked up): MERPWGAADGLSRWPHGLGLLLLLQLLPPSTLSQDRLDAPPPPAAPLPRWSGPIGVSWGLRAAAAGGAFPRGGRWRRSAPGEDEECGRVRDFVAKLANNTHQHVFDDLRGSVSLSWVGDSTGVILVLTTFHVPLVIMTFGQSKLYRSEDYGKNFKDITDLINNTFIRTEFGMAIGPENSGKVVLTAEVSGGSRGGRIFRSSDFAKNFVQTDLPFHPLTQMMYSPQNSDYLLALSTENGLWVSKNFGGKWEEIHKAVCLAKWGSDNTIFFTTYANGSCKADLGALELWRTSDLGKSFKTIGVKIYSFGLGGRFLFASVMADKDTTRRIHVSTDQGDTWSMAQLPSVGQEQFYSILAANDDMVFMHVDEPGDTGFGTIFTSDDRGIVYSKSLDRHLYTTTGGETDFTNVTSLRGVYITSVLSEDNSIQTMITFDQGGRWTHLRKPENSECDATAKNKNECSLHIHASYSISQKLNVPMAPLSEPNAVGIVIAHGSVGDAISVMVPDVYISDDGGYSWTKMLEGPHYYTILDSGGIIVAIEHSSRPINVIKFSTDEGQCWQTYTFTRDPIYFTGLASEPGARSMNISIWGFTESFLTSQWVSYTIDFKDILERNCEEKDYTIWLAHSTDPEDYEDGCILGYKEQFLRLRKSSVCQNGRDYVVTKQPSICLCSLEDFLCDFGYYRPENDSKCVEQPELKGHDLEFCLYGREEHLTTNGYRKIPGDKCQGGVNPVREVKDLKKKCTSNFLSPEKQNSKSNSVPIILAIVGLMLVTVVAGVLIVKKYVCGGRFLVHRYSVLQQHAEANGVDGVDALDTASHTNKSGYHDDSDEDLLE
UniProt O14757, sequence (whole entry, looked up): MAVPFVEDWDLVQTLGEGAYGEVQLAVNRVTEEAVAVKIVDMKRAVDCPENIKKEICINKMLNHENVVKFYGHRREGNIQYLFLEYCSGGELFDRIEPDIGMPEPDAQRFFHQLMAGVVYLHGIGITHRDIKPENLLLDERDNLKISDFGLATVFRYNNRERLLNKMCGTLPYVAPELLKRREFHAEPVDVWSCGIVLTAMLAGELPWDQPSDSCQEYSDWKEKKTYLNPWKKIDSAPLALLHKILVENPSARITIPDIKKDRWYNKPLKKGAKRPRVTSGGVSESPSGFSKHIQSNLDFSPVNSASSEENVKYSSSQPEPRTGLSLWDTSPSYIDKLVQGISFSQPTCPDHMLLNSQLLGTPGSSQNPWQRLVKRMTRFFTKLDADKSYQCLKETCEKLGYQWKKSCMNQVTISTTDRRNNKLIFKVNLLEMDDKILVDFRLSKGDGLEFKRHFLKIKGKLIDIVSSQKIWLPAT
UniProt Q9BE39, sequence (whole entry, looked up): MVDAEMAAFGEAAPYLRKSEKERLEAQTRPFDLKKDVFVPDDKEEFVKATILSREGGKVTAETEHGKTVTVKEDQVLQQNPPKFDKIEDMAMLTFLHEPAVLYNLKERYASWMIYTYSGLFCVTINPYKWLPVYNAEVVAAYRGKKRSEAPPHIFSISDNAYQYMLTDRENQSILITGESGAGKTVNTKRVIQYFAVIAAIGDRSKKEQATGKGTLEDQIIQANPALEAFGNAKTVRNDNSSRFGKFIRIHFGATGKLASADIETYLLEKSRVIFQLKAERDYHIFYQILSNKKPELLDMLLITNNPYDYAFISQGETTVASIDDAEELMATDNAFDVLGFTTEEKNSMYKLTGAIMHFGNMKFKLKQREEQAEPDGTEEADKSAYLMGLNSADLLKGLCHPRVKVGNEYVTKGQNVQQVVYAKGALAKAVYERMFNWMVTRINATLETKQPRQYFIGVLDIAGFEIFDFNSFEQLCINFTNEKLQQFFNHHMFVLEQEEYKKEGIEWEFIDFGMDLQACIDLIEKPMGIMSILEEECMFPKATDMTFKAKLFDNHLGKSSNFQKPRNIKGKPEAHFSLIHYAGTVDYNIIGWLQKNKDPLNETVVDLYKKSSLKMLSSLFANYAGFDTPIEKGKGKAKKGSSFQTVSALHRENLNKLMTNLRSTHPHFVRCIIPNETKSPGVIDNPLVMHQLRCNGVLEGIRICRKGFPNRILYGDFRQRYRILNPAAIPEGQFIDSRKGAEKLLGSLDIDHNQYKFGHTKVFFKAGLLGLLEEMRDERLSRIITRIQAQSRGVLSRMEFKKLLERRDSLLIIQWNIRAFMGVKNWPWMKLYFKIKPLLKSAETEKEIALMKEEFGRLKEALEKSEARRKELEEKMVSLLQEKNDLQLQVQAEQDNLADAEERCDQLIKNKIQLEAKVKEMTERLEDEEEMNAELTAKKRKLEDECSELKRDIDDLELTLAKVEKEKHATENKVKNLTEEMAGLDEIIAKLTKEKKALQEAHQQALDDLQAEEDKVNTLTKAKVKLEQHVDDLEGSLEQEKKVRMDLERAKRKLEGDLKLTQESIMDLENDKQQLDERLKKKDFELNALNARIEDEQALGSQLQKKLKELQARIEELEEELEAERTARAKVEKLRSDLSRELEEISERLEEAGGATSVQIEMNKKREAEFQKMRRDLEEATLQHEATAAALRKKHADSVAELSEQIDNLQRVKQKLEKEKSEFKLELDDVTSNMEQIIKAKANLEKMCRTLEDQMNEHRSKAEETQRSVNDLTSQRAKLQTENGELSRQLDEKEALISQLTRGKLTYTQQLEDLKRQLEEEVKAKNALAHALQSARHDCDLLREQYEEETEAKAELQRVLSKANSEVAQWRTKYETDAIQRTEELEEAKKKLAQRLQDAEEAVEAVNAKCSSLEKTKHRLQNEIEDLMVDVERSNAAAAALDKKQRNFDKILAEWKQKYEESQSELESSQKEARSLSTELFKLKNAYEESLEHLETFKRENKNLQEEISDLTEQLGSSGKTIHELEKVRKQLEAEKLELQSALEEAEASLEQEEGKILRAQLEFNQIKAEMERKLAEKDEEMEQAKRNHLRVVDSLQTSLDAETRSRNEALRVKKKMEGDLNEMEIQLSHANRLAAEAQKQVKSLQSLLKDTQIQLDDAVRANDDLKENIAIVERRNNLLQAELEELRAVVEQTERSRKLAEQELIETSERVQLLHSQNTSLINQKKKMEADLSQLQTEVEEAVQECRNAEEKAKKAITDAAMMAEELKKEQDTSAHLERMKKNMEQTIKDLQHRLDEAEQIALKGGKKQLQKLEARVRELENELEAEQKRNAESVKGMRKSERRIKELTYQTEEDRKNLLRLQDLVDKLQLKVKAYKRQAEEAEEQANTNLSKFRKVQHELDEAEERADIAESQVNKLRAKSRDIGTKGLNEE
UniProt Q96GD4, sequence (whole entry, looked up): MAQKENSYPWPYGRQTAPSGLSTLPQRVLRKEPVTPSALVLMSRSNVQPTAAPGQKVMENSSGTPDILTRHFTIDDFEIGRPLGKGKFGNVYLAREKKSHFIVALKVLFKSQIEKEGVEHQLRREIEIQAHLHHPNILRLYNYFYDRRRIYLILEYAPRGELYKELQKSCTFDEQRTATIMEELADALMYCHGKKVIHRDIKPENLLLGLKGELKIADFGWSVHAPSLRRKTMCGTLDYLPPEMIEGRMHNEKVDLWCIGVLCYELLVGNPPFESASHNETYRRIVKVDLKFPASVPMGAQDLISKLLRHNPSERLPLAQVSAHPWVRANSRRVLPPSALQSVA
UniProt P11712, sequence (whole entry, looked up): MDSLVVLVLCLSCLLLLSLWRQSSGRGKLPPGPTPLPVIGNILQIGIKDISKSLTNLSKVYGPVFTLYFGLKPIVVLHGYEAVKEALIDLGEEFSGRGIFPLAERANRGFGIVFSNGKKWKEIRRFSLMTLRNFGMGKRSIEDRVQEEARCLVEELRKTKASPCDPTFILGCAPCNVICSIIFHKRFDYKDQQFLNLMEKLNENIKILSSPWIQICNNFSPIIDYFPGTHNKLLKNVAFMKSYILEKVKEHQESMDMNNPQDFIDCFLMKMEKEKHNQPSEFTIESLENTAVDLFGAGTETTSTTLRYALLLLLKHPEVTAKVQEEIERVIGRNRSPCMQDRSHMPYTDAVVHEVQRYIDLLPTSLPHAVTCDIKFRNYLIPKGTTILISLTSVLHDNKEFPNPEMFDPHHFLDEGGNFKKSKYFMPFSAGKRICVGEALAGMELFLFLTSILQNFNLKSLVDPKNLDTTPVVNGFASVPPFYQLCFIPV

CC(C)C[C@H](NC(=O)[C@@H](NC(=O)N[C@@H](Cc1ccccc1)C(=O)O)[C@@H]1CCN=C(N)N1)C(=O)N[C@H](C=O)Cc1ccccc1 — IC50 (Cathepsin B (CTSB, Homo sapiens, UniProt P07858); literature value): 1.8 µM
COc1cc2c(cc1-c1c(C)noc1C)[nH]c1nc(C)nc(Nc3cc(C4CC4)nn3C)c12 — IC50 (Bromodomain-containing protein 4, BD1 (BRD4, Homo sapiens, UniProt O60885); biochemical; bromodomain 1): 0.002 µM
CC(C)CCN[C@@H]1CCc2cc(O)c(N3CC(=O)NS3(=O)=O)c(F)c2C1 — IC50 (Tyrosine-protein phosphatase non-receptor type 1 (PTPN1, Homo sapiens, UniProt P18031); enzyme activity, inhibitor, in vitro): 0.0018 µM
CC(C)=CCc1cc2c(cc1O)O[C@H](c1ccc(O)cc1)CC2=O — IC50 (cholesterol acyltransferase; inhibitor): 86 µM
CC1=C[C@@]2(C[C@H](C)[C@H]3CC=C(CO)C(=O)[C@@H]3O2)OC1=O — IC50 (PTP1B; inhibitor): 59.7 µM
N#Cc1ccc(-c2[nH]nc3c2Cc2ccc(OCCCN4CCOCC4)cc2-3)cn1 — IC50 (Serine/threonine-protein kinase Chk1 (CHEK1, Homo sapiens, UniProt O14757); inhibitor): 0.0032 µM
CN1CCC(=C2c3ccccc3CC(=O)c3sccc32)CC1 — IC50 (glutathione reductase (human erythrocyte)): 12 µM
C#CCOc1ccccc1CCCCCC(=O)NS(C)(=O)=O — IC50 (Cytochrome P450 2C19 (CYP2C19, Homo sapiens, UniProt P33261); inhibitor): > 80 µM
Cc1ccc2c(c1)C(=O)[C@]1(O)CCN(c3ccccc3)C1=N2 — IC50 (Myosin-7 (MYH7, Bos taurus, UniProt Q9BE39); published range): 0.4 to 30 µM
C=C1CN(S(=O)(=O)c2ccc(C)cc2)CCCN(Cc2ccccc2)CCCN(S(=O)(=O)c2ccc(C)cc2)C1 — IC50 (Sortilin (Homo sapiens, UniProt Q99523); protein down-modulation, degrader): 5.6 µM
C=C(C)[C@H](CC=C(C)C)Cc1c(O)cc(O)c2c1O[C@H](c1ccc(O)cc1O)CC2=O — IC50 (tyrosinase; inhibitor): 6.6 µM
O=C(O)[C@H]1O[C@@H](Oc2c(O)cc(O)c3c(=O)c(O)c(-c4ccc(O)c(O)c4)oc23)[C@H](O)[C@@H](O)[C@@H]1O — IC50 (sortase A, Staphylococcus aureus; inhibitor): 31.2 µg/mL
C#CCOc1ccccc1CCCCCC(=O)O — IC50 (Cytochrome P450 2C9 (CYP2C9, Homo sapiens, UniProt P11712); inhibitor): 23 µM
O=C(O)c1cc(O)c2c(c1)C(=O)c1cc(O)cc(O)c1C2=O — IC50 (Amine oxidase [flavin-containing] A (MAOA, Homo sapiens, UniProt P21397)): 23.3 ± 1.16 µM
C=C(C)[C@H](CC=C(C)C)Cc1c(O)cc(OC)c2c1O[C@H](c1ccc(O)cc1O)CC2=O — IC50 (tyrosinase; inhibitor): 6.2 µM
C[N+]1(C)CCC(OC(=O)C(c2ccccc2)c2ccccc2)CC1 — IC50 (Muscarinic acetylcholine receptor M1 (CHRM1, Homo sapiens, UniProt P11229); inhibitor; historical reference value): 0.0045 µM
C=C(C)[C@H](CC=C(C)C)Cc1c(O)cc(OC)c(C(=O)/C=C/c2ccc(O)cc2O)c1O — IC50 (tyrosinase; inhibitor): 0.6 µM
O=C(/C=C/c1ccc(O)c(O)c1)O[C@@H]1C[C@](O)(C(=O)O)C[C@@H](O)[C@H]1O — IC50 (sortase A, Staphylococcus aureus; inhibitor): 33.9 µg/mL
COCC(=O)N1CCC[C@H](C(=O)NCc2nc(-c3ccc(C#N)cc3)cs2)C1 — IC50 (PSMB1/PSMB5/PSMB3 (Homo sapiens, UniProt P20618+P28074+P49720); enzyme activity, inhibitor): > 30 µM
COc1ccc(-c2coc3cc(O)ccc3c2=O)cc1O — IC50 (tyrosinase; inhibitor): 38.4 ± 0.9 µM
CN(C)CCCn1cc(C2=C(c3c[nH]c4ccccc34)C(=O)NC2=O)c2ccccc21 — IC50 (Ribosomal protein S6 kinase alpha-3 (RPS6KA3, Homo sapiens, UniProt P51812); kinase activity, inhibitor): 0.31 µM
O=C(O)c1ccc(-c2c[nH]c3ncc(-c4ccccc4)cc23)cc1C1CCCC1 — IC50 (Aurora kinase B (AURKB, Homo sapiens, UniProt Q96GD4); kinase activity, inhibitor): 0.00528 µM
Oc1ccc([C@H]2Oc3cc(O)cc4c3[C@@H]2c2cc(O)cc3c2[C@@H](c2cc(O)cc5c2[C@@H]4[C@H](c2ccc(O)cc2)O5)[C@H](c2ccc(O)cc2)O3)cc1 — IC50 (alpha-amylase (porcine pancreas); starch-iodine; added: starch): 4.8 µM

Repeated from above:
C=C(C)[C@H](CC=C(C)C)Cc1c(O)cc(OC)c(C(=O)/C=C/c2ccc(O)cc2O)c1O — IC50 (tyrosinase; inhibitor): 0.6 µM
O=C(/C=C/c1ccc(O)c(O)c1)O[C@@H]1C[C@](O)(C(=O)O)C[C@@H](O)[C@H]1O — IC50 (sortase A, Staphylococcus aureus; inhibitor): 33.9 µg/mL
